Results from different studies.
Lines come from different studies, so protocols differ. “And” joins repeats or separate records; there may be more than shown. ± marks the error that the study gave. In brackets after ≈: the same amount, converted by molar mass.
Organism: Klebsiella pneumoniae

| Compound | assay | system | setting | scale | endpoint | value |
| --- | --- | --- | --- | --- | --- | --- |
| C[C@@H](O)[C@H]1C(=O)N2C(C(=O)O)=C(S[C@@H]3CN[C@H](C(=O)N(C)C)C3)[C@H](C)[C@H]12 |  | ALE, mouse, intranasal infection, lung | intraperitoneal, 10 mg/kg, 24 h |  | lung bacterial load | 4.13 log10 CFU/g and 4.93 log10 CFU/g and 4.79 log10 CFU/g and 4.12 log10 CFU/g and 4.94 log10 CFU/g and 5.6 log10 CFU/g and 4.34 log10 CFU/g and 4.71 log10 CFU/g |
| CNC(C)C1CCC(N)C(OC2C(N)CC(N)C(OC3OCC(C)(O)C(NC)C3O)C2O)O1 (stereo not shown) | broth microdilution | NCTC 13438 |  | reference: 5% CO2 over ambient air | MIC fold shift | 2 |
| CN[C@H](CC(C)C)C(=O)N[C@H]1C(=O)N[C@@H](CC(N)=O)C(=O)N[C@H]2C(=O)N[C@H]3C(=O)N[C@H](C(=O)N[C@H](C(=O)O)c4cc(O)cc(O)c4-c4cc3ccc4O)[C@H](O)c3ccc(c(Cl)c3)Oc3cc2cc(c3O[C@@H]2O[C@H](CO)[C@@H](O)[C@H](O)[C@H]2O[C@H]2C[C@](C)(N)[C@H](O)[C@H](C)O2)Oc2ccc(cc2Cl)[C@H]1O |  | ATCC 27736 | 20 h |  | MBC | 1000 µg/mL (≈ 690 µM) |
| N=C(N)c1ccc(OCc2ccc(Br)cc2COc2ccc(C(=N)N)cc2)cc1 | checkerboard | ATCC 13883 | unit not given, added: rifampicin | lower = stronger synergy | FICI | ≤ 0.031 |
| CN[C@@H]1[C@@H](O[C@H]2O[C@H](CO)[C@@H](N)[C@H](O)[C@H]2O)OC2C[C@@H](N)[C@@H](O[C@H]3[C@H](O)[C@@H](O)[C@H](N)C[C@@H]3N)OC2[C@@H]1O (stereo partly shown) | broth microdilution | NCTC 13438 |  | reference: 5% CO2 over ambient air | MIC fold shift | 1 |
| Cc1c(CN(C)C(=O)/C=C/c2cnc3c(c2)CC(NC(=O)OC(C)(C)C)C(=O)N3)oc2ccccc12 (stereo not shown) | broth microdilution | AR-0113 |  |  | MIC | > 32 µg/mL |
| N=C(N)c1ccc(OCc2cc(COc3ccc(C(=N)N)cc3)cc(-c3ccccc3)c2)cc1 |  | ATCC 13883 | concentration not given, added: rifampicin |  | MIC in combination | 3.13 µg/mL |
| N=C(N)c1ccc(/N=N/Nc2ccc(C(=N)N)cc2)cc1 | bacterial growth, OD600 |  | overnight |  | MIC90 | 5.85 ± 0.59 mM (≈ 1650 µg/mL) |
| N=C(N)c1ccc(OCc2ccc(-c3ccccc3)cc2COc2ccc(C(=N)N)cc2)cc1 | checkerboard | ATCC 13883 | unit not given, added: rifampicin | lower = stronger synergy | FICI | ≤ 0.023 |
| Cc1c(CN(C)C(=O)/C=C/c2cnc3c(c2)CCC(=O)N3)oc2ccccc12 | broth microdilution | AR-0098 |  |  | MIC | > 32 µg/mL |

For quick reference, copied from above:
| Compound | assay | system | setting | scale | endpoint | value |
| --- | --- | --- | --- | --- | --- | --- |
| Cc1c(CN(C)C(=O)/C=C/c2cnc3c(c2)CC(NC(=O)OC(C)(C)C)C(=O)N3)oc2ccccc12 (stereo not shown) | broth microdilution | AR-0113 |  |  | MIC | > 32 µg/mL |
